Assay results from different studies.
Numbered parts are unrelated; each lists some results of a single study. “And” joins repeats or separate records; there may be more than shown.
UniProt P42336, sequence (whole entry, unmodified, looked up): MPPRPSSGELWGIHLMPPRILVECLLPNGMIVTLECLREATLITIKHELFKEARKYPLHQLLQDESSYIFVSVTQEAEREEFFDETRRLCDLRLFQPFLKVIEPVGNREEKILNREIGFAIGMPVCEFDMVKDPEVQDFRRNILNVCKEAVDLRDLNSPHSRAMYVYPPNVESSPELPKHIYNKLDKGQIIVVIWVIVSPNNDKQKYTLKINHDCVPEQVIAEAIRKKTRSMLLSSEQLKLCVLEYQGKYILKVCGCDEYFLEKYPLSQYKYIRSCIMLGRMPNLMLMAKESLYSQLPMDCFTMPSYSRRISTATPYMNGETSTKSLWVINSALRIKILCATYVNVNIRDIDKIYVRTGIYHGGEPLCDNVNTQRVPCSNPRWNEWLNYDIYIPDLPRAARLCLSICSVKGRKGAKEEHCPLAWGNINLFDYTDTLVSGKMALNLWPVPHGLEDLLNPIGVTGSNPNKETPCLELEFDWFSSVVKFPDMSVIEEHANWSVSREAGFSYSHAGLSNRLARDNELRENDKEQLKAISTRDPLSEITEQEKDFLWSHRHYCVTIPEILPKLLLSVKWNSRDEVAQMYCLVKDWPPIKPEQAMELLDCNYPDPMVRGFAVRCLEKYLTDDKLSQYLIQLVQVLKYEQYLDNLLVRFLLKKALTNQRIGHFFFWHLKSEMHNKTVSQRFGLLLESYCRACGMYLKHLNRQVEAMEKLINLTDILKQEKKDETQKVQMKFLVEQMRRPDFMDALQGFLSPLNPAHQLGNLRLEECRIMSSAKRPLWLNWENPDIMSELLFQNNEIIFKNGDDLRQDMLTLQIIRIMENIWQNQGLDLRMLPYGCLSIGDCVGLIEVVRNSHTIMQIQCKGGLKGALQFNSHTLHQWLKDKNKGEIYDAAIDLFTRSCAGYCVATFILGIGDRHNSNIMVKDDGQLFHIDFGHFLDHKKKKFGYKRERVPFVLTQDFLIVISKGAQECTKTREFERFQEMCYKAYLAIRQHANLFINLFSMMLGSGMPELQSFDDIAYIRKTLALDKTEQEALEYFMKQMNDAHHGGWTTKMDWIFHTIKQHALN
UniProt P00519, sequence (whole entry, unmodified, looked up): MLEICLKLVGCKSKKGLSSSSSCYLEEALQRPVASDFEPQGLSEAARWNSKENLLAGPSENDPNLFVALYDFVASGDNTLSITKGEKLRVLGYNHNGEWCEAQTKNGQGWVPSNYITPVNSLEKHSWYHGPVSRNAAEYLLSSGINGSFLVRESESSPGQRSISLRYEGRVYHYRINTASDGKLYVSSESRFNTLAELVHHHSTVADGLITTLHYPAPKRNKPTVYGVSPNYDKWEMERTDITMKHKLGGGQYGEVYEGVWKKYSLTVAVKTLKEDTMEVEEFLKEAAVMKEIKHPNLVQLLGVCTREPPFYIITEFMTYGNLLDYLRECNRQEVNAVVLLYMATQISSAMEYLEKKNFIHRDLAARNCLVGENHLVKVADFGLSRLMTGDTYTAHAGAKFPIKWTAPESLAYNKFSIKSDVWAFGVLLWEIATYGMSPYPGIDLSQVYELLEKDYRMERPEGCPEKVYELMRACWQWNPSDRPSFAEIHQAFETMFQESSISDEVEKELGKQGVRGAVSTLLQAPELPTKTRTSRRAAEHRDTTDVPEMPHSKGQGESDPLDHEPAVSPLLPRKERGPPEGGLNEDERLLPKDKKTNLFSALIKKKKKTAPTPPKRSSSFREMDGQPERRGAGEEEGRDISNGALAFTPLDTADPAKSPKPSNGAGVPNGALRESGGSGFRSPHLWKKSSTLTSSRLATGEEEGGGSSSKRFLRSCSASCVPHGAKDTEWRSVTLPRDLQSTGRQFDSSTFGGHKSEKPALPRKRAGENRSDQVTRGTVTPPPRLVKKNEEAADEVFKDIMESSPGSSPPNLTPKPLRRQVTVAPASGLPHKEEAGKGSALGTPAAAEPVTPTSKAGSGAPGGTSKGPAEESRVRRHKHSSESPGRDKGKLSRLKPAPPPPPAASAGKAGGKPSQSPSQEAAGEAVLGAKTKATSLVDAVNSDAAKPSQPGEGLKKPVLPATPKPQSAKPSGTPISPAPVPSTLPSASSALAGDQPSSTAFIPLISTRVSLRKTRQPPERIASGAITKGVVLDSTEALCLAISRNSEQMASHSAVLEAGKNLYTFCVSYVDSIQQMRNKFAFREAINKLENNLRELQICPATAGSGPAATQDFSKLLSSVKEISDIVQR
UniProt Q13873, sequence (whole entry, looked up): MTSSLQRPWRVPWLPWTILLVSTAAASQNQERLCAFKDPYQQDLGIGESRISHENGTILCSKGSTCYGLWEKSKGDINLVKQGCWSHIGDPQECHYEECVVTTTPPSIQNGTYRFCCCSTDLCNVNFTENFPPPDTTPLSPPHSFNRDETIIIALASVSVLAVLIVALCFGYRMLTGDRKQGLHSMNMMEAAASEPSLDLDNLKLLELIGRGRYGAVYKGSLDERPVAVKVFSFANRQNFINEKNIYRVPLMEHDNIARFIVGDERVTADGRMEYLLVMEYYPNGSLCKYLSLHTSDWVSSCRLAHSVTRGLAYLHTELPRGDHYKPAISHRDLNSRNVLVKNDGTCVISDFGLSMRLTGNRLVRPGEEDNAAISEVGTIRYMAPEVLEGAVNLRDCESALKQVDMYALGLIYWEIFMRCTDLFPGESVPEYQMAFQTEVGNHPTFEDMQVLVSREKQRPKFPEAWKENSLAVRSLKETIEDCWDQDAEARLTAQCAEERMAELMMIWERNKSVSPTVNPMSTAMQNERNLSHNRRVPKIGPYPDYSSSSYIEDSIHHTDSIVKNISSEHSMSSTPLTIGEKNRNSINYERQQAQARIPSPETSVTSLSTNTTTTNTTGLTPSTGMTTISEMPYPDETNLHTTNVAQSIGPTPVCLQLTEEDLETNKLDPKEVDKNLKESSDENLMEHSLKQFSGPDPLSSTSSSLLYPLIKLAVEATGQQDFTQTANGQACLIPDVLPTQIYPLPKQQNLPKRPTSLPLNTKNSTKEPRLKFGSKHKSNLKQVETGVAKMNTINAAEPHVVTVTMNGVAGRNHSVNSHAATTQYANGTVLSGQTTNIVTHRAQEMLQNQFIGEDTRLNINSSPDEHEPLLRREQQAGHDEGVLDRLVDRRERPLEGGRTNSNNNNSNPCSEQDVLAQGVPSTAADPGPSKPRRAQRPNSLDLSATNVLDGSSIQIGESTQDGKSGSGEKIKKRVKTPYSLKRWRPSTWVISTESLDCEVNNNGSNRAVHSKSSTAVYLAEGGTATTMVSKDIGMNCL
UniProt Q9Y2U5, sequence (whole entry, looked up): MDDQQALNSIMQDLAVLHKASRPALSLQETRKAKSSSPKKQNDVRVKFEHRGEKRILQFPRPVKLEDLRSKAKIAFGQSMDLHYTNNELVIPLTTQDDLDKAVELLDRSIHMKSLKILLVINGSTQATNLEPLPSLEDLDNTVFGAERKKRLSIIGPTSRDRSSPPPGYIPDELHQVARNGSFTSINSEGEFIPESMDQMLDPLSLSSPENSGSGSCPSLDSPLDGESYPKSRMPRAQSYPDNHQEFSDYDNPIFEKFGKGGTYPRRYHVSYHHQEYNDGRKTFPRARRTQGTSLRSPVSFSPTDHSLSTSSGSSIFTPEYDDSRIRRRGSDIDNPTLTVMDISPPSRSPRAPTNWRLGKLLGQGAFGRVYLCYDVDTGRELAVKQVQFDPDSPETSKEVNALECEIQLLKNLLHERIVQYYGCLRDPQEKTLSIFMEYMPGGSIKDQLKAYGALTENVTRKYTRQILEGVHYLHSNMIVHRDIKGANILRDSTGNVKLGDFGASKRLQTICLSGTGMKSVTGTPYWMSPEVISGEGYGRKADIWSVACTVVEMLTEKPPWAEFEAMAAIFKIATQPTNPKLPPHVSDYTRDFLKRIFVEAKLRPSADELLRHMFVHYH
UniProt O43293, sequence (whole entry, looked up): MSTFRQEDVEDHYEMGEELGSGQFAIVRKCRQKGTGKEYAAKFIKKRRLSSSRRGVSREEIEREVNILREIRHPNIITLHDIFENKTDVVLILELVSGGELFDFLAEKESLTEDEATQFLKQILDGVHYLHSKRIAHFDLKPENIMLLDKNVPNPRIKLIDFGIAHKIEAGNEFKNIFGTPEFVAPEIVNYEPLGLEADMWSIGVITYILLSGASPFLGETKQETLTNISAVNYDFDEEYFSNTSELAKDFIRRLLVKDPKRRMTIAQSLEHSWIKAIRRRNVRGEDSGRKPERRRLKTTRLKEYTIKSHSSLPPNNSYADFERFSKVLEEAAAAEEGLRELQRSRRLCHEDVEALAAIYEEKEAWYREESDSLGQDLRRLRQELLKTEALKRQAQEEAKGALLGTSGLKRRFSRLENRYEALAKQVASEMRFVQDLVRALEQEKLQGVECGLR
UniProt Q9H4B4, sequence (whole entry, looked up): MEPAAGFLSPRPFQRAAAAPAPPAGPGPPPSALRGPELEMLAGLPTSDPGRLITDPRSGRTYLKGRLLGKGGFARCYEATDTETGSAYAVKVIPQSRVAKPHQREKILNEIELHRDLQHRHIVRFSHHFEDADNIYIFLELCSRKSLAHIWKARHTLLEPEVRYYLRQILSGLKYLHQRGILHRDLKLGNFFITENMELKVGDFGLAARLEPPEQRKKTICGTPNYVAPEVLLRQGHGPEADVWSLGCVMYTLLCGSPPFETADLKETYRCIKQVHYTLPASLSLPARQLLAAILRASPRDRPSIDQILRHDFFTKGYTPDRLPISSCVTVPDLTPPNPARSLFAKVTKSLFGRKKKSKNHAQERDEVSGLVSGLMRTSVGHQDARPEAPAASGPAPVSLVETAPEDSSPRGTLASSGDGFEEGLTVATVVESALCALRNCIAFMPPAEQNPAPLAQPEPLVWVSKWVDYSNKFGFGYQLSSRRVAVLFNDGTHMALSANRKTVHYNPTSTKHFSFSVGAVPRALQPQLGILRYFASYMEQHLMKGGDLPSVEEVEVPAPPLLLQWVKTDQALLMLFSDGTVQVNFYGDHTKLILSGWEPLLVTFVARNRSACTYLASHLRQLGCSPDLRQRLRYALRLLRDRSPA

Set 1
SMILES: Cc1ccc(NC(=O)c2ccnc(C(F)(F)F)c2)cc1-c1cc(OCCO)nc(N2CCOCC2)c1
Tested at: 1 µM
Quantity: remaining binding
MYLK2 (Homo sapiens, UniProt Q9H1R3); competitive binding panel; reference: vehicle: 98%
BMPR2 (Homo sapiens, UniProt Q13873); competitive binding panel; reference: vehicle: 100%
SBK1 (Homo sapiens, UniProt Q52WX2); competitive binding panel; reference: vehicle: 68%
NTRK3 (Homo sapiens, UniProt Q16288); competitive binding; TRKC: 98%
MAP3K2 (Homo sapiens, UniProt Q9Y2U5); competitive binding panel; reference: vehicle: 75%
ABL1 (Homo sapiens, UniProt P00519, T315I); competitive binding scan: 77% and 100%
SRMS (Homo sapiens, UniProt Q9H3Y6); competitive binding panel; reference: vehicle: 92%
MAP3K10 (Homo sapiens, UniProt Q02779); competitive binding panel, item: MLK2; reference: vehicle: 94%
BMP2K (Homo sapiens, UniProt Q9NSY1); competitive binding; BIKE: 82%
GRK7 (Homo sapiens, UniProt Q8WTQ7); competitive binding panel; reference: vehicle: 99%
PIK3CA (Homo sapiens, UniProt P42336, E542K); competitive binding panel; reference: vehicle: 90%
PHKG2 (Homo sapiens, UniProt P15735); competitive binding panel; reference: vehicle: 88%
GSK3B (Homo sapiens, UniProt P49841); competitive binding panel; reference: vehicle: 99%
EPHA4 (Homo sapiens, UniProt P54764); competitive binding panel; reference: vehicle: 85%
PKN2 (Homo sapiens, UniProt Q16513); competitive binding panel; reference: vehicle: 89%

Set 2
Target: Tyrosine-protein kinase SYK (SYK, Homo sapiens, UniProt P43405)
Observed: enzyme activity
Mode: inhibitor
Tested at: 0.5 µM
Reference: control
Quantity: remaining activity
O=c1cc(N2CCOCC2)oc2c1ccc1ccccc12: 93%
COc1ccc(Cl)cc1NC(=O)Nc1cc(C)nc2ccccc12: 88.2%
Cn1cc(/C=C2\C(=O)Nc3ccc(S(N)(=O)=O)cc32)c2ccccc21: 16.5%
CS(=O)(=O)CCNCc1ccc(-c2ccc3ncnc(Nc4ccc(OCc5cccc(F)c5)c(Cl)c4)c3c2)o1: 113%
O=C1NC(=O)/C(=C/c2ccc3nccnc3c2)S1: 98%
CC(C)[C@H](CO)Nc1nc(Nc2cccc(Cl)c2)c2ncn(C(C)C)c2n1: 88.9%
COc1cc2ncnc(N3CCN(C(=O)Nc4ccc(Oc5ccccc5)cc4)CC3)c2cc1OC: 93.2%
Nc1[nH]nc2nnc(-c3c(-c4ccccc4)nn4ccccc34)cc12: 97.4%
COc1cc2ncnc(Nc3ccc(OCc4ccccc4)cc3)c2cc1OC: 93.1%
C[S+]([O-])c1ccc(-c2nc(-c3ccncc3)c(-c3ccc(F)cc3)[nH]2)cc1 (stereo not shown): 98%
CC(C)c1nn(-c2c(Cl)cccc2Cl)c2nc(Cc3ccc(OCCO)cc3)[nH]c(=O)c12: 98.6%
O=C(Nc1ccc(Cl)cc1)c1ccccc1NCc1ccncc1: 93.6%
CC(=O)O/N=C1/C(c2c(O)[nH]c3cc(Br)ccc23)=Nc2ccccc21: 88.3%
CCN1/C(=C/C(C)=O)Sc2ccc(OC)cc21: 94.8%
CCOc1cc2ncnc(Nc3cccc(Br)c3)c2cc1OCC: 95.6%
CN(C)CCCn1cc(C2=C(c3c[nH]c4ccccc34)C(=O)NC2=O)c2ccccc21: 90%
CCC(=O)Nc1ccc2ncnc(Nc3cccc(Br)c3)c2c1: 94.3%
COc1ccc(-c2cnc3c(-c4ccsc4)cnn3c2)cc1: 101%
Cc1nc(Nc2ncc(C(=O)Nc3c(C)cccc3Cl)s2)cc(N2CCN(CCO)CC2)n1: 65.5%
COc1cc2ncc(-c3ccccc3)nc2cc1OC: 92.5%
Cn1cnc2cc3c(Nc4cccc(Br)c4)ncnc3cc21: 98.5%

Set 3
SMILES: COc1ccc2c(c1)O[C@H](c1ccc(OC)c(OC)c1)C[C@@H]2NC(=O)C1(c2ccc3c(c2)OC(F)(F)O3)CC1
Observed: cell-free assay
Method: competition with immobilised ligand
Tested at: 1 µM
Quantity: remaining binding
STK39 (Homo sapiens, UniProt Q9UEW8): 100%
NUAK1 (Homo sapiens, UniProt O60285): 95%
Tyrosine-protein kinase ABL1, phosphorylated (ABL1, Homo sapiens, UniProt P00519, E255K): 90%
NUAK2 (Homo sapiens, UniProt Q9H093): 100%
MAPK11 (Homo sapiens, UniProt Q15759): 93%
MAP4K2 (Homo sapiens, UniProt Q12851): 99%
PIK3CA (Homo sapiens, UniProt P42336, H1047L): 100%
PIK3C2G (Homo sapiens, UniProt O75747): 61%
PIKFYVE (Homo sapiens, UniProt Q9Y2I7): 89%
PIK3CA (Homo sapiens, UniProt P42336, M1043I): 84%
DAPK3 (Homo sapiens, UniProt O43293): 95%
TAOK1 (Homo sapiens, UniProt Q7L7X3): 100%
ABL2 (Homo sapiens, UniProt P42684): 100%
PLK3 (Homo sapiens, UniProt Q9H4B4): 100%
STK32B (Homo sapiens, UniProt Q9NY57): 100%
HIPK1 (Homo sapiens, UniProt Q86Z02): 87%
PIM2 (Homo sapiens, UniProt Q9P1W9): 100%
KIT (Homo sapiens, UniProt P10721, V559D): 100%
Tyrosine-protein kinase JAK1, JH1 (JAK1, Homo sapiens, UniProt P23458): 100%
BMPR2 (Homo sapiens, UniProt Q13873): 92%
MARK2 (Homo sapiens, UniProt Q7KZI7): 100%
EGFR (Homo sapiens, UniProt P00533, G719C): 100%

Set 4
Cell line: mouse MPNST tumor cells
Method: high-content nuclear imaging
Item: cell number
Tested at: 10 µM
Time: 12 h
Notes: mean of 2 replicates
Reference: plate mean
Direction: higher = more cells
Quantity: nuclei count
c1coc(CNc2ncnc3nc[nH]c23)c1: 1.11 z-score
O=C1c2cc3c(cc2OC2CCCN12)OCCO3 (stereo not shown): -0.0517 z-score
CC1(CN2CCC(n3c(=O)[nH]c4ccccc43)CC2)OCc2ccccc2-n2cccc21 (stereo not shown): 2.39 z-score
Nc1ncnc2c1nc(Br)n2[C@@H]1O[C@@H]2COP(=O)(O)O[C@H]2[C@H]1O: 1.58 z-score
O=C(c1cn(Cc2cncn2Cc2ccc(Br)cc2)cc1-c1cccc2ccccc12)N1CCOCC1: 1.42 z-score
COc1cc(C(C)C)c2c(c1)S(=O)(=O)N(COc1cc(=O)n3cccc(OCCN4CCCCC4)c3n1)C2=O: -2.95 z-score
C[N+]1(CC2CCCCCC2)CCC(NC(=O)C2c3cc(Cl)ccc3Oc3ccc(Cl)cc32)CC1 (stereo not shown): -0.109 z-score
O=C(NCCCN1CCOCC1)c1cnn2c(-c3ccccc3)cc(-c3ccccc3)nc12: 4.72 z-score
OCCN1CCN(CCCN2c3ccccc3Sc3ccc(Cl)cc32)CC1: -7.35 z-score
CC(=O)O[C@H]1CC[C@@]2(C)C(=CC[C@@H]3[C@@H]2CC[C@]2(C)C(c4cccnc4)=CC[C@@H]32)C1: 2.74 z-score
CC(C)N1CCN(c2ccc(OCC3COC(Cn4cncn4)(c4ccc(Cl)cc4Cl)O3)cc2)CC1 (stereo not shown): -4.71 z-score
CN(C)CC(=O)Nc1ccc2[nH]c(=O)c3ccccc3c2c1: 1.92 z-score

A few entries again (set 1):
MAP3K10 (Homo sapiens, UniProt Q02779); competitive binding panel, item: MLK2; reference: vehicle: 94%
BMP2K (Homo sapiens, UniProt Q9NSY1); competitive binding; BIKE: 82%
GRK7 (Homo sapiens, UniProt Q8WTQ7); competitive binding panel; reference: vehicle: 99%
PIK3CA (Homo sapiens, UniProt P42336, E542K); competitive binding panel; reference: vehicle: 90%
